Results collected from several papers.
Protocols differ between the studies behind these lines. ± marks the error that the study gave.
Target: N-formyl peptide receptor 2 (FPR2, Homo sapiens, UniProt P25090)
Residues used in one study (P25090 1-351): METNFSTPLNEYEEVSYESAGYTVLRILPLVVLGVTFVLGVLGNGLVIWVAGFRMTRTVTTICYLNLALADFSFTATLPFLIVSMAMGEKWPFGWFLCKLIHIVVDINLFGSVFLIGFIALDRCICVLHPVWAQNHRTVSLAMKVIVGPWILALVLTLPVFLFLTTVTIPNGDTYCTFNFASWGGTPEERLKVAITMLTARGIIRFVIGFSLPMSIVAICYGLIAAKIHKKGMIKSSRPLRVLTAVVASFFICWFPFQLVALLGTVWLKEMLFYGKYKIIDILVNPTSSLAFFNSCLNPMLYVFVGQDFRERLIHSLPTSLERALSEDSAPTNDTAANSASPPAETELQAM

`COc1ccc(C2(CNC(=O)[C@](C)(Cc3c[nH]c4ccccc34)NC(=O)Nc3ccc([N+](=O)[O-])cc3)CCCCC2)nc1` gave an EC50 of 1300 ± 350 nM (calcium mobilization, agonist; HL-60 cells expressing FPR2).
With `CC1=NN(CC(=O)Nc2ccc(Br)cc2)C(=O)CC1C` (racemic) the EC50 was 2600 nM (calcium signal, agonist).
`serum amyloid A protein` gave an IC50 of 10 to 100 nM (radioligand competition; HEK293 expressing FPR2; 30 min, 4 °C, with: [3H]lipoxin A4).
`CCC[C@H](C(=O)Nc1ccc(Br)cc1)n1nc(C)cc(Cc2cccc(OC)c2)c1=O` gave an EC50 of 840 nM (calcium mobilization, agonist; HL-60 transfected with FPR2).
`C[C@@](Cc1c[nH]c2ccccc12)(NC(=O)Nc1ccc([N+](=O)[O-])cc1)C(=O)NCC1(c2ccccn2)CCCCC1` has an EC50 of 620 ± 260 nM (calcium mobilization, agonist; HL-60 cells expressing FPR2).
With `CCC(C(=O)Nc1ccc(Br)cc1)n1nc(C)cc(Cc2cccc(OC)c2)c1=O` (racemic) the EC50 was 2200 nM (calcium mobilization, agonist; HL-60 transfected with FPR2).
`CC1=NN(CC(=O)Nc2ccc(Br)cc2)C(=O)CC1c1ccccc1` (racemic) gave an EC50 of 630 nM (calcium signal, agonist).
With `COc1ccc(NC(=O)N[C@H](Cc2ccc(O)cc2)C(=O)NCC2(c3ccccc3)CC2)cc1` the IC50 was 24800 nM (calcium signal, antagonist).

Excerpt of the above:
`CCC[C@H](C(=O)Nc1ccc(Br)cc1)n1nc(C)cc(Cc2cccc(OC)c2)c1=O` gave an EC50 of 840 nM (calcium mobilization, agonist; HL-60 transfected with FPR2).
